Experimental data from different studies.
Numbers after ± are the reported error.

Structure (SMILES) | assay | system | setting | scale | measurement | result
CCCCCOc1ccc(-c2ccc(-c3ccc(C(=O)N[C@H]4C[C@@H](O)[C@@H](OCC[N+](C)(C)C)NC(=O)[C@@H]5[C@@H](O)[C@@H](C)CN5C(=O)[C@H]([C@@H](C)O)NC(=O)[C@H]([C@H](O)[C@@H](O)c5ccc(O)cc5)NC(=O)[C@@H]5C[C@@H](O)CN5C(=O)[C@H]([C@@H](C)O)NC4=O)cc3)cc2)cc1 | – | healthy adult human, plasma | subcutaneous, 10 mg | – | terminal half-life | 188 h
CSCC[C@@H]1NC(=O)[C@H](CC(=O)O)NC(=O)CNC(=O)[C@H](CCCNC(=N)N)NC(=O)[C@H](C)NC(=O)[C@H](CCC(=O)O)NC(=O)[C@H](CCCNC(=N)N)NC(=O)[C@@H]2CSSC[C@@H]3NC(=O)[C@H](CO)NC(=O)[C@H]([C@@H](C)O)NC(=O)[C@@H]4CCCN4C(=O)[C@H](C)NC(=O)[C@H](Cc4c[nH]c5ccccc45)NC(=O)[C@H](CC(=O)O)NC(=O)CNC(=O)[C@H](CCCNC(=N)N)NC(=O)CNC(=O)[C@H](CCC(N)=O)NC(=O)[C@@H]4CCCN4C(=O)[C@@H](NC(=O)CNC(=O)C(C)F)CSSC[C@H](NC(=O)CNC(=O)[C@H](C)NC(=O)[C@H](CC(C)C)NC(=O)[C@H](CSSC[C@@H](C(=O)NCC(N)=O)NC(=O)[C@H]([C@@H](C)O)NC(=O)[C@H](CCCNC(=N)N)NC(=O)[C@@H]4CCCN4C1=O)NC(=O)[C@H](CC(=O)O)NC(=O)[C@H](CO)NC(=O)[C@H](CC(=O)O)NC(=O)[C@H](CCC(N)=O)NC(=O)[C@H](CO)NC3=O)C(=O)N[C@@H](C(C)C)C(=O)N2 (stereo partly drawn) [fluorine-18 labelled] | – | nude mice U-87 MG xenograft, spleen | intravenous, 0.5 h | – | tissue uptake | 0.88 ± 0.06 %ID/g
CN1C(=CC=C2CCCC(=CC=C3N(CCCCCC(=O)O)c4ccccc4C3(C)C)C2=O)C(C)(C)c2ccccc21 | – | phosphate buffer-acetonitrile | pH 7.5, 25 °C | – | emission maximum | 643 nm
CC(C)C[C@@H](N)C(=O)N[C@H]1C(=O)N[C@@H](CC(N)=O)C(=O)N[C@H]2C(=O)N[C@H]3C(=O)N[C@H](C(=O)N[C@H](C(=O)O)c4cc(O)cc(O)c4-c4cc3ccc4O)[C@H](O)c3ccc(c(Cl)c3)Oc3cc2cc(c3O[C@@H]2O[C@H](CO)[C@@H](O)[C@H](O)[C@H]2O[C@H]2C[C@](C)(N)[C@H](O)[C@H](C)O2)Oc2ccc(cc2Cl)[C@H]1O | – | New Zealand White rabbit, aqueous humour | continuous topical ocular, dose not given, 24 h | reference: eye drops | AUC(0-24) ratio | ~10 fold
C(#Cc1cc(C#CCCC[n+]2cccc(-c3ccccc3)c2)c(C#CCCC[n+]2cccc(-c3ccccc3)c2)cc1C#CCCC[n+]1cccc(-c2ccccc2)c1)CCC[n+]1cccc(-c2ccccc2)c1.[Br-].[Br-].[Br-].[Br-] | rotarod | rat | – | reference: motor ED50 over analgesic ED50 | ED50 ratio | 20 to 800 fold
[123I]c1cncc(OC[C@@H]2CCN2)c1 | SPECT | human, temporal lobe | intravenous bolus plus infusion, 7.7 mCi | reference: plasma | tissue/plasma ratio | 22.3
Oc1ccc2cc3ccc4cccc5ccc(c2c1)c3c45 | UPLC-AMS | human, plasma | oral, 250 ng of [14C]-BaP | – | AUC | 32.3 ± 18.9 fg BaP equivalents·h/mL
COc1cc(-c2nc(-c3ccccc3)c(-c3cccs3)[nH]2)cc(OC)c1OC(=O)C1=CN(C)C=CC1 | – | C57BL/6 mouse, CES1 knockout, liver homogenate | 10 µM, 1 h, 37 °C | – | remaining compound | < 25%
CC(C)[C@@H]1NC(=O)CNC(=O)[C@H](CC(N)=O)NC(=O)[C@H](CCCNC(=N)N)NC(=O)[C@H](Cc2ccc(O)cc2)NC(=O)[C@H](C(C)C)NC(=O)[C@@H](NC(=O)[C@@H](NC(=O)[C@H](CC(N)=O)NC(=O)[C@H](Cc2c[nH]c3ccccc23)NC(=O)[C@H](C)NC(=O)[C@H](Cc2ccccc2)NC(=O)CN)C(C)C)CSSC[C@@H](C(=O)N[C@@H](Cc2cnc[nH]2)C(=O)N[C@@H](CCCNC(=N)N)C(=O)N[C@@H](CCCNC(=N)N)C(=O)N[C@@H](C)C(=O)N[C@@H](CC(N)=O)C(N)=O)NC(=O)[C@H](C(C)C)NC(=O)[C@H](CCCNC(=N)N)NC1=O | – | mouse mammary gland homogenate | 2560 µM, 24 h | – | remaining peptide | < 14.5%
CN[C@@](C)(C[18F])C(=O)O | – | SCID mice (MDA-MB-468 xenograft) | 30 min after injection | – | tumour uptake | 3.9 ± 0.5 %ID/g
CN1/C(=C/C=C2\CCCC(/C=C/C3=[N+](C)c4ccccc4C3(C)C)=C2c2ccc(CCCCCCCCCCCCCCCCCCOP(=O)(O)OCC[N+](C)(C)C)cc2)C(C)(C)c2ccccc21 | – | octanol/water | 48 h, pH 7.4, room temperature | – | logD | 4.66
Cc1sc2c(c1C)C(c1ccc(Cl)cc1)=N[C@@H](CC(=O)OC(C)(C)C)c1nnc(C)n1-2 | – | Ringer's with 10% beta-cyclodextrin | time not given, plastic vessel, plastic vial | reference: nominal 50 ng/mL | recovery | 90%

For quick reference, copied from above:
Structure (SMILES) | assay | system | setting | scale | measurement | result
CCCCCOc1ccc(-c2ccc(-c3ccc(C(=O)N[C@H]4C[C@@H](O)[C@@H](OCC[N+](C)(C)C)NC(=O)[C@@H]5[C@@H](O)[C@@H](C)CN5C(=O)[C@H]([C@@H](C)O)NC(=O)[C@H]([C@H](O)[C@@H](O)c5ccc(O)cc5)NC(=O)[C@@H]5C[C@@H](O)CN5C(=O)[C@H]([C@@H](C)O)NC4=O)cc3)cc2)cc1 | – | healthy adult human, plasma | subcutaneous, 10 mg | – | terminal half-life | 188 h
[123I]c1cncc(OC[C@@H]2CCN2)c1 | SPECT | human, temporal lobe | intravenous bolus plus infusion, 7.7 mCi | reference: plasma | tissue/plasma ratio | 22.3
